Experimental data collected from several papers.
Compare with care: the assays were run in different laboratories. ± marks the error that the study gave.
Organism: Plasmodium yoelii

SMILES	assay	system	conditions	how to read	quantity	value
Cc1nc(C)c(-c2ccc(Oc3ccc(OC(F)(F)F)cc3)cc2)c(O)c1I	–	17XL	384-well	–	IC50	198 ± 40 nM
Cc1[nH]c(/C=C2\N=C(c3ccc[nH]3)C3=C2OCCO3)cc1Cc1ccc(OC(F)(F)F)cc1.Cl	–	CF1 mice	oral, 10 mg/kg daily for 4 days, day 5	reference: vehicle	parasitaemia reduction	64.7%
Cc1[nH]c(C)c(-c2ccc(CCc3ccc(F)cc3F)cc2)c(=O)c1Cl	–	17XL	384-well	–	IC50	143 ± 113 nM
FC(F)(F)Oc1ccc(COC2=CC(c3ccc[nH]3)=N/C2=C\NC23CC4CC(CC(C4)C2)C3)cc1	–	CF1 mice	oral, 25 mg/kg daily for 4 days, day 5	–	parasitemia reduction	> 80%
COC1=CC(c2ccc[nH]2)=N/C1=C\c1[nH]c(-c2ccccc2)cc1-c1ccccc1	–	CF1 mice	oral, 10 mg/kg daily for 4 days, day 5	reference: vehicle	parasitaemia reduction	100%
Cc1nc2c(c(O)c1Cl)-c1ccc(Oc3cccc(C(F)(F)F)c3)cc1C2=O	–	17XL	384-well	–	IC50	116 ± 54 nM
O=c1c2ccc(OCc3cccc(OC(F)(F)F)c3)cc2[nH]c2cc(F)cc(Cl)c12	antimalarial activity	CF1 mouse	oral, once daily for 4 days	–	ED50	0.29 mg/kg
CCC1=C(CC)/C(=C/c2[nH]c(Cc3ccc(Cl)cc3)cc2Cc2ccc(Cl)cc2)N=C1c1ccc[nH]1	–	CF1 mice	oral, 25 mg/kg daily for 4 days, day 5	reference: vehicle	parasitaemia reduction	100%
Cc1[nH]c(C)c(-c2ccc(OCc3ccc(OC(F)(F)F)cc3)nc2)c(=O)c1Cl	–	17XL	384-well	–	IC50	117 ± 22 nM
CC(C)(C)OC(=O)N1CCC(Oc2ccc3c(=O)c4c(F)cc(Cl)cc4[nH]c3c2)C1 (centres unmarked)	antimalarial activity	CF1 mouse	oral, once daily for 4 days	–	ED50	0.34 mg/kg
COC1=CC(c2ccc[nH]2)=N/C1=C\c1[nH]c(Cc2ccc(OC(F)(F)F)cc2)cc1Cc1ccc(OC(F)(F)F)cc1	parasitaemia	mouse	4-day treatment, parasitaemia day 5	–	ED50	2.48 mg/kg/day
O=c1c2ccc(Oc3cccc(OC(F)(F)F)c3)cc2[nH]c2cc(Cl)cc(F)c12	antimalarial activity	CF1 mouse	oral, once daily for 4 days	–	ED50	0.84 mg/kg
Cc1[nH]c(C)c(-c2ccc(C(=O)c3ccc(Cl)cc3)cc2)c(=O)c1Br	–	17XL	384-well	–	IC50	290 ± 66 nM
COC1=CC(c2ccc[nH]2)=N/C1=C\c1cc(Cc2ccc(OC(F)(F)F)cc2)c(C)[nH]1.Cl	parasitaemia	mouse	4-day treatment, parasitaemia day 5	–	ED90	6.11 mg/kg/day
O=c1c2ccc(OCc3cccc(OC(F)(F)F)c3)cc2[nH]c2cc(Cl)cc(F)c12	antimalarial activity	CF1 mouse	oral, once daily for 4 days	–	ED50	0.1 mg/kg
CCCCCc1cc(/C=C2\N=C(c3ccc[nH]3)C=C2Oc2ccc(OC(F)(F)F)cc2)[nH]c1C.Cl	parasitaemia suppression	mouse	oral, 4 days	–	ED50	2.19 mg/kg/day
O=c1c2ccc(Oc3ccc(OC(F)(F)F)cc3)cc2[nH]c2ccc(F)c(Cl)c12	antimalarial activity	CF1 mouse	oral, once daily for 4 days	–	ED50	0.28 mg/kg
Cc1[nH]c(C)c(-c2ccc(CCc3ccc(F)cc3F)cc2)c(=O)c1Br	–	17XL	384-well	–	IC50	49 ± 12 nM
O=c1c2ccc(Oc3ccc(OC(F)(F)F)cc3)cc2[nH]c2cc(F)c(Cl)cc12	antimalarial activity	CF1 mouse	oral, once daily for 4 days	–	ED50	0.1 mg/kg
Cc1[nH]c(/C=C2\N=C(c3ccc[nH]3)C=C2OC(C)C)cc1Cc1ccc(Cl)cc1.Cl	parasitaemia	mouse	4-day treatment, parasitaemia day 5	–	ED50	1.29 mg/kg/day
